{"data": "Experimental data gathered from unrelated publications", "note": "Parts stem from different laboratories: compare values within a part only. Substitutions count along the parent as printed."}
{"data": "Block 1", "target": "RING finger protein unkempt homolog, zinc fingers 1-6, GST-SBP tag (UNK, Homo sapiens, UniProt Q9C0B0, residues 30-357)", "technique": "RNA Bind-n-Seq", "form": "RNA", "sample": "in vitro", "tested at": "not given", "notes": "RNA with constant flanks, human and mouse sites, ends assumed", "relative to": "input RNA pool", "direction": "higher = stronger binding", "constant ends, left off below": "GGGAGUUCUACAGUCCGACGAUC … CAACAGAGGAUUGAGCAUCA", "Residues (chain)": "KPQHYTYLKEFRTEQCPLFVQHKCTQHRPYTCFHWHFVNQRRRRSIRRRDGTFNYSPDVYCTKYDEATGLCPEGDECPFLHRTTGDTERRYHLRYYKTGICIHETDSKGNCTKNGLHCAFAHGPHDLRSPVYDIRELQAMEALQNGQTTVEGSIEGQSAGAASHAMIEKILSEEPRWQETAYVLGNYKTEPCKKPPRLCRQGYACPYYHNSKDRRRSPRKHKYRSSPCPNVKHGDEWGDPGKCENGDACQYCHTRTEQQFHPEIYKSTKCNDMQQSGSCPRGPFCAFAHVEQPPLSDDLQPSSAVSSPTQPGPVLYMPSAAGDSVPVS"}
{"Oligonucleotide": "UCUGCAAUAGUUGGAUUUAUCUACGGGUACGUGGCUGAACAGUUCGGGUGGACUGUCUAUAUAGUUAUGGCCGGAUUUGCUUUUUCAUGUUUGCUGACACUUCCUCCAUGGCCCAUCUAU", "bound/input enrichment": "0.315 ratio"}
{"Oligonucleotide": "GACAAAACGCACCCUACCUGGAAAGUACUUGGAGAAGAUCGCAGAGCAGAUGCAUUCCCAUAGUAUCAAUGCCCUUCUGAUCAUUGGAGGAUUUGAGCCAGUGGUAAUAUGAGAGAAUGA", "bound/input enrichment": "0.348 ratio"}
{"Oligonucleotide": "AGUUUCAGUUCAAACUUGAGCCCCCAAGAGUGGGUCCAGCUGUGGUUCACAGUUACCCGUUUUAGAAGUGAAGUUUCAUUUUCUGGGUGCCUUUGAAAACUGACUUCAUGUGUUUGUGAC", "bound/input enrichment": "0.229 ratio"}
{"Oligonucleotide": "GUUUUUAGCUGUCACAGUGCUGAGAGUCUUGAUAGUGUCAGUGUGUCCACACCUGAUCCUUUACCCGAAAAAAUAAGAGGAUAUCAAGAGGCUGAAAGAAUAUUUUCAGAAGCAUAGACU", "bound/input enrichment": "0.3 ratio"}
{"Oligonucleotide": "AGAGCAGGUGCAUGCCGAUGGGUCAUGCAGCCCUCAGGAAGAGACGGCCAUGACAGAGCAUCAGAUGGAAGGCCCCCCUGAGGAAGCAGAGAGUCUUCAUGAGGAGGAAGAAACUCUUGC", "bound/input enrichment": "0.0994 ratio"}
{"Oligonucleotide": "AAGUUUCCAUUCUGUCAAGUAAGUACAGAAGAAGGCAAAGGGAAGAUCUGGUGGAAUCUUCGAAAAACCUGCUACAGUAUUGUUGAGCACAACUGGUUUGAGACUUUCAUUGUGUUCAUG", "bound/input enrichment": "0.112 ratio"}
{"Oligonucleotide": "GAUCCUAUGGUUCGGAGUUUUGCUGUUCGGUGCUUAGAAAAAUAUUUAACAGAUGACAAACUUUCUCAGUACCUCAUUCAACUUGUACAGGUCUUAAAAUAUGAACAGUAUUUGGAUAAC", "bound/input enrichment": "0.928 ratio"}
{"Oligonucleotide": "AGUUACAGUUAUAUUGCUAUGAUGUUAACAAUGCCCAAAAGCAAGUUGGGGAAUAAAGUGGACUUAUAUUUCCACAUCCUAGCCCAUCACUGAAGGCAGUCAGGGCAGGAACCUGAGACU", "bound/input enrichment": "0.185 ratio"}
{"data": "Block 2", "target": "Ras GTPase-activating protein-binding protein 1, RRM domain (G3BP1, Homo sapiens, UniProt Q13283)", "technique": "RNA Bind-n-Seq", "form": "RNA", "sample": "in vitro", "tested at": "1 µM", "notes": "whole 134-nt RNA, ends assumed", "together with": "150 mM KCl", "relative to": "input library", "direction": "higher = stronger binding", "constant ends, left off below": "GGGAGUUCUACAGUCCGACGAUC … UGGAAUUCUCGGGUGUCAAGG", "sequence of UniProt Q13283 (whole entry, looked up)": "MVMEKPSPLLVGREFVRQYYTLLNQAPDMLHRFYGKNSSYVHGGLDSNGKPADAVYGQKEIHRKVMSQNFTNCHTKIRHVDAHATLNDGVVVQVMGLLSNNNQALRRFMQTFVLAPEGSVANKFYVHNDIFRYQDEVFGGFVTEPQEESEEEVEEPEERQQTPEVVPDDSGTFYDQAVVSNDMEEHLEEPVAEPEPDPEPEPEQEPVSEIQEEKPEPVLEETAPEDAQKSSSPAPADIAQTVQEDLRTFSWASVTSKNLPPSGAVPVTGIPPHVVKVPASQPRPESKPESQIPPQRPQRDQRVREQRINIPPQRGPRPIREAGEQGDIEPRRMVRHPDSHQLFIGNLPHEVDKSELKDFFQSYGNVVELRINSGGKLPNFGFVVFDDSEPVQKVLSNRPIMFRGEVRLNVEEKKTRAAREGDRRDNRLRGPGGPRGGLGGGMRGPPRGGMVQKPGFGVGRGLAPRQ"}
{"Oligonucleotide": "UCCUGUGCUACACAUCGUAUGUACCGAAUCGGGGCCCCCGGGGCCCCCGGGGCCCCCGGGAAAGUAUUAUGUUACGCCGUUCGGAUCUGC", "log2 enrichment": -0.804}
{"Oligonucleotide": "UCAAGUCCUGUGCUACACAUCGUAUGUACCGAAUCGGAGGUUUUUGGAAAAAGGAAAGUAUUAUGUUACGCCGUUCGGAUCUGCACUUCC", "log2 enrichment": -0.247}
{"Oligonucleotide": "AAGUCCUGUGCUACACAUCGUAUGUACCGAAUCGGUUUUGGGGUUUUGGUUUUGGGGAAAGUAUUAUGUUACGCCGUUCGGAUCUGCACU", "log2 enrichment": -0.256}
{"Oligonucleotide": "UGGGAGGUGGAUUUUGUUUAUUUUUUUAGCUCCUUUCCAGGGGUGGGAAUUUUUUUUUAAUAUGUGUCAUGAAUAAAGUUGUUUUUGAAA", "log2 enrichment": 1.59}
{"Oligonucleotide": "CUCAAGUCCUGUGCUACACAUCGUAUGUACCGAAUCGGUGGUUUGGUUUUUGGAAAGUAUUAUGUUACGCCGUUCGGAUCUGCACUUCCA", "log2 enrichment": -0.26}
{"Oligonucleotide": "CCUGUGCUACACAUCGUAUGUACCGAAUCGGGGAAAAAGGGGUUUGGGGUUUUUUUGGGGAAAGUAUUAUGUUACGCCGUUCGGAUCUGC", "log2 enrichment": 0.827}
{"Oligonucleotide": "UCCUGUGCUACACAUCGUAUGUACCGAAUCGGUUUUUUGGUUUUUUGGGGUUUUUUGGGAAAGUAUUAUGUUACGCCGUUCGGAUCUGCA", "log2 enrichment": -0.245}
{"Oligonucleotide": "UGGAAUAAGCCUGGUGCUUUCUGGCUAUGUUUGUCAUAGGCUGACCUGGAUAUCACCGAAAUAAACAAACUAACAGCAGAAGCUAUUCAG", "log2 enrichment": -0.117}
{"Oligonucleotide": "UGGGAGGUGGAUUUUGUUUAUUUUUUUAGCUCAUUUCCAGGGGUGGGAAUUUAUUUUUAAUAUGUGUCAUGAAUAAAGUUGUUUUUGAAA", "log2 enrichment": 2.28}
{"data": "Block 3", "target": "CCND1, cyclin fold, Cln2 fusion (human)", "technique": "yeast growth competition, sequencing", "sample": "yeast", "notes": "weak parent motif", "relative to": "not given", "direction": "higher = stronger binding", "starting sequence": "RB1 docking peptide (human); PKPLKKLRFDIEG; partner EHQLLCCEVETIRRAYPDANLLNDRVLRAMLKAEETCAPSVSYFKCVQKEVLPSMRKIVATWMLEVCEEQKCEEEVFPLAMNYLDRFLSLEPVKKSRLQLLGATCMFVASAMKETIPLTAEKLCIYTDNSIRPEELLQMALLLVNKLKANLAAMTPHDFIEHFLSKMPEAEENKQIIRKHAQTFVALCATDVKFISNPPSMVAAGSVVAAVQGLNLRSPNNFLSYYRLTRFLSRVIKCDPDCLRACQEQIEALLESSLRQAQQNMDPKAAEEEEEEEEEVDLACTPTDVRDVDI"}
{"Substitution": "PKPLKKLRFDIKG [E12K]", "normalised enrichment score": -0.687}
{"Substitution": "PKPLKKLRFYIEG [D10Y]", "normalised enrichment score": 0.499}
{"Substitution": "PKILKKLRFDIEG [P3I]", "normalised enrichment score": 0.232}
{"Substitution": "PKPLIKLRFDIEG [K5I]", "normalised enrichment score": 0.227}
{"Substitution": "PKPVKKLRFDIEG [L4V]", "normalised enrichment score": -0.0334}
{"Substitution": "PKPLKKMRFDIEG [L7M]", "normalised enrichment score": -0.181}
{"Substitution": "PKPLKKLRFDHEG [I11H]", "normalised enrichment score": 0.0217}
{"Substitution": "PKPLKKLRFDIEA [G13A]", "normalised enrichment score": 0.0315}
{"Substitution": "PAPLKKLRFDIEG [K2A]", "normalised enrichment score": 0.169}
{"Substitution": "PKPLKKKRFDIEG [L7K]", "normalised enrichment score": 0.553}
{"Substitution": "PKQLKKLRFDIEG [P3Q]", "normalised enrichment score": -0.453}
{"Substitution": "PKPLKKLRLDIEG [F9L]", "normalised enrichment score": 0.199}
{"Substitution": "PDPLKKLRFDIEG [K2D]", "normalised enrichment score": -0.263}
{"Substitution": "PKPFKKLRFDIEG [L4F]", "normalised enrichment score": 0.583}
{"Substitution": "LKPLKKLRFDIEG [P1L]", "normalised enrichment score": -0.579}
{"Substitution": "PKPLMKLRFDIEG [K5M]", "normalised enrichment score": 0.0711}
{"Substitution": "PKPLKKLRFDIHG [E12H]", "normalised enrichment score": -0.391}
{"Substitution": "PKPIKKLRFDIEG [L4I]", "normalised enrichment score": 0.726}
{"Substitution": "PKYLKKLRFDIEG [P3Y]", "normalised enrichment score": -0.0227}
{"Substitution": "PKPLKCLRFDIEG [K6C]", "normalised enrichment score": 0.288}
{"Substitution": "PKPLKMLRFDIEG [K6M]", "normalised enrichment score": 0.322}
{"Substitution": "PKPLKKLGFDIEG [R8G]", "normalised enrichment score": -0.138}
{"Substitution": "PIPLKKLRFDIEG [K2I]", "normalised enrichment score": 0.635}
{"Substitution": "PKPLKKNRFDIEG [L7N]", "normalised enrichment score": -0.208}
{"Substitution": "PKPLDKLRFDIEG [K5D]", "normalised enrichment score": -0.0591}
{"data": "Block 4", "target": "PABPC1L2, full length, GST fusion (mouse, UniProt A0ABA7IW68)", "technique": "RNAcompete", "form": "RNA", "sample": "in vitro", "tested at": "20 nM", "notes": "7-mer, probes averaged, single round", "relative to": "mean of 7-mers", "direction": "higher = stronger binding", "Residues (chain)": "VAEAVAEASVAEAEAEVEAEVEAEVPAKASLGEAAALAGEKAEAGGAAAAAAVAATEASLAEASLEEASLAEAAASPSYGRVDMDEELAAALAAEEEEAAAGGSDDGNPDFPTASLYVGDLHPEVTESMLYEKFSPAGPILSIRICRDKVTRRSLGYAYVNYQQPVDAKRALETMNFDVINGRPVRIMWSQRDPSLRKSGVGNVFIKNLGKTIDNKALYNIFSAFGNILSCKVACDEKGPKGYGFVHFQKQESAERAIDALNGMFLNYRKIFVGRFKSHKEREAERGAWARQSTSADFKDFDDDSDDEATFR"}
{"Oligonucleotide": "AAACCCC", "7-mer Z-score": -0.0881}
{"Oligonucleotide": "GCAAAGU", "7-mer Z-score": 0.0189}
{"Oligonucleotide": "UAGCUCU", "7-mer Z-score": -0.206}
{"Oligonucleotide": "GGCGCAU", "7-mer Z-score": 0.00979}
{"Oligonucleotide": "CUCGACA", "7-mer Z-score": -0.231}
{"Oligonucleotide": "CCAUACC", "7-mer Z-score": -0.257}
{"Oligonucleotide": "ACCCUAA", "7-mer Z-score": -0.0192}
{"Oligonucleotide": "ACCGCAG", "7-mer Z-score": -0.0953}
{"Oligonucleotide": "CCUUUCU", "7-mer Z-score": -0.55}
{"Oligonucleotide": "AAAACGC", "7-mer Z-score": 3.37}
{"Oligonucleotide": "UUGGACC", "7-mer Z-score": -0.0174}
{"Oligonucleotide": "CACAGCG", "7-mer Z-score": -0.0881}
{"Oligonucleotide": "UGACGGA", "7-mer Z-score": -0.0409}
{"Oligonucleotide": "ACCGCCG", "7-mer Z-score": -0.282}
{"Oligonucleotide": "UGAAGAC", "7-mer Z-score": -0.126}
{"Oligonucleotide": "AGACCUG", "7-mer Z-score": -0.325}
{"Oligonucleotide": "CCGUCCG", "7-mer Z-score": -0.469}
{"Oligonucleotide": "UUUCUUU", "7-mer Z-score": -0.293}
{"Oligonucleotide": "UCAAAGG", "7-mer Z-score": -0.0863}
{"Oligonucleotide": "GUGGACC", "7-mer Z-score": 0.148}
{"note": "For quick reference, copied from above (block 4):"}
{"Oligonucleotide": "AAACCCC", "7-mer Z-score": -0.0881}
{"Oligonucleotide": "GCAAAGU", "7-mer Z-score": 0.0189}
{"Oligonucleotide": "UAGCUCU", "7-mer Z-score": -0.206}
{"Oligonucleotide": "GGCGCAU", "7-mer Z-score": 0.00979}
{"Oligonucleotide": "CUCGACA", "7-mer Z-score": -0.231}
{"Oligonucleotide": "CCAUACC", "7-mer Z-score": -0.257}
{"Oligonucleotide": "ACCCUAA", "7-mer Z-score": -0.0192}
{"Oligonucleotide": "ACCGCAG", "7-mer Z-score": -0.0953}
{"Oligonucleotide": "CCUUUCU", "7-mer Z-score": -0.55}
{"Oligonucleotide": "AAAACGC", "7-mer Z-score": 3.37}
